Experimental data pooled from the literature.
Every numbered part comes from another study and shows a few of its results, in no order.

Sample 1
Target: RNA binding protein fox-1 homolog 2, RRM domain, GST-SBP tag (RBFOX2, Homo sapiens, UniProt O43251-10, residues 100-194)
Technique: RNA Bind-n-Seq
Molecule type: RNA
Matrix: in vitro
Concentration: 365 nM
Setting: natural RNA segment, single round, ends assumed
Reference: no-protein control
Direction: higher = stronger binding
Residues (chain): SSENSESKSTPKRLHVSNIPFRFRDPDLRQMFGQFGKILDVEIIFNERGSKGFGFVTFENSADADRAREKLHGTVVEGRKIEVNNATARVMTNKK
| Sequence | RBNS enrichment (R) |
| --- | --- |
| GGGAGUUCUACAGUCCGACGAUCUGCCCCUCUCCUUCCUGGCUACUUAAGGUCAGGAAGGAAAAAGGGGACCUCUGUUUCUUCGGCUGUUGGAACCUUGAAAUGACCAGAAAGUAGGACAUGUGCAGUCCCACUGGAAUUCUCGGGUGCCAA | 0.455 |
| GGGAGUUCUACAGUCCGACGAUCGGUGGCCUUAACUACAGUGGAGGUGGAACUUCCCAGGAGGGGAAGGGACAGACCAGCCCCAGCCGCUGGGCCAACUUCCAAUCAUUCCAGCUAGAAGAGCUUCCCCCUGAUGGAAUUCUCGGGUGCCAA | 0.467 |
| GGGAGUUCUACAGUCCGACGAUCAGGCUCAGCCCGCUGGAGCAUGAGCUCUGUGUGUACCGAGAACUGGGGUGAUGUUUUACUUUUCACAGUAUGGGCUACACAGCAGCUGUUCAACAAGAGUAAAUAUUGUCUGGAAUUCUCGGGUGCCAA | 0.356 |
| GGGAGUUCUACAGUCCGACGAUCGCCUCUUCUCUUGGAGUUCUGAGGCCUGGGGAUGCCCAGGAACACUGGGCACCUGCUGCUGUUAGGGCCAAUGCAUAGUCUCAGCACCGGUGUCCUAAGGUUAAGGCGGUUGGAAUUCUCGGGUGCCAA | 0.38 |

Sample 2
Target: Centromere-binding protein 1, full length, His-tagged (CBF1, Saccharomyces cerevisiae, UniProt P17106, residues 1-351)
Chain of UniProt P17106 (whole entry, looked up): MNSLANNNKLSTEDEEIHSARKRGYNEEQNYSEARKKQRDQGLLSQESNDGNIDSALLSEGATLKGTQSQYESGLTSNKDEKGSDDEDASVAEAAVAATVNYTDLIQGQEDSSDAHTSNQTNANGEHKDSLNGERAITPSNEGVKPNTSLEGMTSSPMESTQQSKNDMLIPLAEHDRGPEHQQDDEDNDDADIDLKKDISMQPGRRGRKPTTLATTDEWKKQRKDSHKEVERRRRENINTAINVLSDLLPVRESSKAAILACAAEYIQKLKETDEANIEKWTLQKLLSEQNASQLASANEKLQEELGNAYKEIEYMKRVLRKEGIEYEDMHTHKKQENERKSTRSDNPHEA
Technique: competition protein-binding microarray
Molecule type: double-stranded DNA, one strand shown
Matrix: in vitro
Concentration: 2 µM
Setting: whole 60-bp probe, lowest competitor level
Added: Pho4 competitor, 0.05 µM
Direction: higher = stronger binding
| Sequence | fluorescence intensity |
| --- | --- |
| TGAGGTAAGATTCTCTCCGTGCCAGCCTCTGGTGCTGTCTTGATTCGCTTGACGCTGCTG | 56.8 a.u. |
| TTTTCAAGGGATAAGCACATGACAATGGGCGACAAAGTCTTGATTCGCTTGACGCTGCTG | 366 a.u. |
| CGATGGCGCCAGCATCACCTGGAGAGCATGGTGTTAGTCTTGATTCGCTTGACGCTGCTG | 68.8 a.u. |

Sample 3
Target: Histone acetyltransferase KAT6A, winged helix 1, GST fusion (KAT6A, Homo sapiens, UniProt Q92794, residues 1-85)
Technique: protein binding microarray
Molecule type: double-stranded DNA, one strand shown
Matrix: in vitro
Concentration: not given
Setting: 8-mer, flanks averaged, mean of 2 arrays, mostly near background
Reference: not given
Direction: higher = stronger binding
Construct (chain): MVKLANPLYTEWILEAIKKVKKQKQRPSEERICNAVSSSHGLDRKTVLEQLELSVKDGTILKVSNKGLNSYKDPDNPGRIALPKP
| Sequence | E-score |
| --- | --- |
| CAGAGTAG | -0.115 |
| AGAGGATG | -0.22 |
| CCCTAATA | -0.117 |

Other studies, line by line
| Substance | target | test | test system | setting | how to read | endpoint | result |
| --- | --- | --- | --- | --- | --- | --- | --- |
| PhoQ, residues 284 288 289 292 302 303 TGYLSA | PhoP, residues 12 14 15 18 19 SGWQI (Escherichia coli, UniProt P23836) | Sort-seq, refers to: YFP reporter | E. coli | PhoQ-PhoP variant library, added: 10 µM Mg2+ | reference: high Mg2+ state, higher = stronger signaling | fold induction | 8.4 |

Some of these lines once more (sample 1):
| Sequence | RBNS enrichment (R) |
| --- | --- |
| GGGAGUUCUACAGUCCGACGAUCGCCUCUUCUCUUGGAGUUCUGAGGCCUGGGGAUGCCCAGGAACACUGGGCACCUGCUGCUGUUAGGGCCAAUGCAUAGUCUCAGCACCGGUGUCCUAAGGUUAAGGCGGUUGGAAUUCUCGGGUGCCAA | 0.38 |
